Published values from different studies.
Each numbered part is a random draw from the data of one study; scales do not carry over between parts. Changes are numbered by the printed parent chain.

Set 1
Target: CCNF, cyclin fold, Cln2 fusion (human)
Method: yeast growth competition, sequencing
Matrix: yeast
Notes: strong parent motif
Relative to: not given
Direction: higher = stronger binding
Parent: BRCA2 docking peptide (human); PSIKRNLLNEFDR
Variant	normalised enrichment score
P1H	3.66
N6R	2.3
K4C	5.67
P1V	4.16
P1Q	4.38
N9I	4.25
I3N	0.409
N6G	0.0344

Set 2
Target: Histone acetyltransferase KAT6A, both winged helices, GST fusion (KAT6A, Homo sapiens, UniProt Q92794, residues 1-181)
Method: protein binding microarray
Form: double-stranded DNA, one strand shown
Matrix: in vitro
Concentration: not given
Notes: 8-mer, flanks averaged, mean of 2 arrays, mostly near background
Relative to: not given
Direction: higher = stronger binding
Target sequence (chain): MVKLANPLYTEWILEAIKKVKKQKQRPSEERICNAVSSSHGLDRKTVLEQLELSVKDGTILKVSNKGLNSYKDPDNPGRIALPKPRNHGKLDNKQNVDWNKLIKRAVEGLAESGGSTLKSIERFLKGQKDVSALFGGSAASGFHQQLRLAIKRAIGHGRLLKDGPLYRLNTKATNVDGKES
Strand	E-score
ACCATCCC	-0.149
CATAACGG	0.144
TAGCGATA	0.0784
CAGAGCCA	-0.224
AACGAAAA	-0.00543
AAATCGTT	-0.0672

Set 3
Target: RNA binding protein fox-1 homolog 2, RRM domain, GST-SBP tag (RBFOX2, Homo sapiens, UniProt O43251-10, residues 100-194)
Method: RNA Bind-n-Seq
Form: RNA
Matrix: in vitro
Concentration: 365 nM
Notes: natural RNA segment, single round, ends assumed
Relative to: no-protein control
Direction: higher = stronger binding
All sequences stand within: GGGAGUUCUACAGUCCGACGAUC … UGGAAUUCUCGGGUGCCAA
Strand	RBNS enrichment (R)
UGUCCUGUCUGUAUGAUCUAAAAACCAGCCUUUUCCCCAGAAGGCUCUGAGCACAUCCAGAAGUGAUAACCUGACCCUCCACACCAAAGACACCCUGGUGCUGCUGCUGG	0.442
UGACGUUCGAAUUGAUAGAAACGCUUAGCAGUUGCCUUUUUUAAACAUCGAUACGAGACCUCUGAAUUUGUAUUUUUUCUUGUUAACCAUUUUAAUUUGUUGGCUGGAUG	0.926
GGGCACUGGGCUUGUUGGGGCCAGAAAUGUCCACGUCCUGAGCUUUCUCCUGGAGCAUGUGCAGAGAGUUUGGCAACGUUCGCUCUCUUGACCAGACCCCUUCUCCCUGA	4.98
UAAUUGCCGCAUGGAUCCCACUGUGCCCUCUUGUUCUGUGCAAGUCUGUCCUGUCUGGGCACUAACCUUGGUCCCAUGCAUGUUUAUGUUCUGGGUGGGGCUUUGCCUCU	17.8
AAGAAGUCUGCCUCUGAGUUACAGCUCUUUCUCAACAAGUACAGAGUUUGAGGCUUGCAGUUGCAACAGCUGGAUGUUUGGUGGUUCUUGCUGCCAGCCAAAUAAAUUGG	0.46
UGCACUUUCUGCAGGAACACCUGUGACCUCAGUCCCGACUCCUGACGCCACCGCUGCUCUUCUUGCGUUUUUGUAAUCUUUUCAUUUUUGAAGCUUCCAAUUUGCUUGCU	2.57
UCACACCUUUCCUGCCUGCGCAAACCUAGCUGUACCUAGCUGUACACGUCCUUUAUUAGAGAUGACCGAGGGGAAGCAGCUGCUGUUUAGCUGACCCCCCACAUGAGAAG	1.11
AGGAGUCCACAGGGAUAGCUUCCGACAGCUCCAGCGACUCUUCCAGCUCCUCCAGCUCCAGUUCGUCAGACUCCGACUCAGAGUGCGAGUCUGGAUCCGAGGGCGAUGGG	0.572

Further values, each from its own experiment
Substance	target	assay	test system	conditions	scale	measurement	value
PhoQ, residues 284 288 289 292 302 303 SIHLQL	PhoP, residues 12 14 15 18 19 GQALL (Escherichia coli, UniProt P23836)	Sort-seq, refers to: YFP reporter	E. coli	PhoQ-PhoP variant library, added: 10 µM Mg2+	relative to: high Mg2+ state, higher = stronger signaling	fold induction	27.7

For quick reference, copied from above (set 3):
Strand	RBNS enrichment (R)
UGACGUUCGAAUUGAUAGAAACGCUUAGCAGUUGCCUUUUUUAAACAUCGAUACGAGACCUCUGAAUUUGUAUUUUUUCUUGUUAACCAUUUUAAUUUGUUGGCUGGAUG	0.926
